Experimental data collected from several papers.
A part holds a random share of what one study measured. Positions count from the first letter of the parent shown.

Set 1
Target: CCND3, cyclin fold, Cln2 fusion (human)
Technique: yeast growth competition, sequencing
Matrix: yeast
Notes: weak parent motif
Reference: not given
Direction: higher = stronger binding
Starting sequence: CDKN1C docking peptide (human); TSACRSLFGPVDH; partner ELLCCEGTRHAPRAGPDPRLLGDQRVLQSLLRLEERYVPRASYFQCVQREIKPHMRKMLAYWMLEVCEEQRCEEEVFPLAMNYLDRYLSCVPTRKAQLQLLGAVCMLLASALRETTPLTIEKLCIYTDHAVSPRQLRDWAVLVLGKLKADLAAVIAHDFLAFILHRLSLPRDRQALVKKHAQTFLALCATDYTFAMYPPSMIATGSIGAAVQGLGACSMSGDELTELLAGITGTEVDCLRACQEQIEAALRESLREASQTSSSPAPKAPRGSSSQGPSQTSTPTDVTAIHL
Substitution	normalised enrichment score
S6A	0.116
H13A	0.129
R5K	0.422
S2A	0.197
R5K F8L	0.0903
R5A L7A	-0.101
F8A	0.138
G9A	0.145
L7A	0.0696

Set 2
Target: ABI1, truncated, D143A, DHFR fusion (Arabidopsis thaliana)
Technique: DHFR PCA, deep sequencing
Matrix: yeast
Notes: methotrexate growth selection, single substitutions
Together with: (+)-ABA 17 µM
Reference: wild-type fitted maximum
Direction: higher = stronger binding
Starting sequence: PYL1, truncated, DHFR fusion (Arabidopsis thaliana); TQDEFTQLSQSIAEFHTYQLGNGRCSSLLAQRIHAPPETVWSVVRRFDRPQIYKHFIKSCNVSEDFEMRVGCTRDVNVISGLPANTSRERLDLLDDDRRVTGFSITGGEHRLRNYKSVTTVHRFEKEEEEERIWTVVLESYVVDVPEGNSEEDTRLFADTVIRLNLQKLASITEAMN
Substitution	relative binding score
R74P	-7.72%
S171T	90.3%
R98A	71%
D48R	5.12%
N165C	-11.2%
L91G	-7.11%
F124H	71.7%
S171N	89.7%
M68D	24.8%
D65N	83.9%
S59C	68.4%
F5N	60.2%
E174Q	75.9%
F157P	-2.97%
H55G	91.1%
E130M	82.9%
T119P	-2.35%
I172A	41.6%
E67Q	81.8%
S150T	92.5%
C72H	59.8%
Q51S	31.2%
A84M	24.4%
R88M	72.8%

Set 3
Target: JUND, bZIP domain (human)
Technique: DHFR protein complementation
Matrix: yeast
Notes: single substitutions, most at no-binding floor
Reference: wild-type JUN-FOS pair
Direction: higher = stronger binding
Starting sequence: JUN, bZIP domain (human); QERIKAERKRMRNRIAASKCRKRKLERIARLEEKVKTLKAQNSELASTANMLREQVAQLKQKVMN
Substitution	binding fitness [natural log]
V56T	-1.38
V35K	-1.29
L31F	-1.48
V35H	-1.46
M51P	-1.43
N42Y	-1.3
E32F	-1.29
L31K	-1.45
L52F	-1.44
I28Y	-1.3
L59A	-1.28
I28D	-1.38
L38H	-1.49
L38I	-1.52

Set 4
Target: RING finger protein unkempt homolog, zinc fingers 1-6, GST-SBP tag (UNK, Homo sapiens, UniProt Q9C0B0, residues 30-357)
Technique: RNA Bind-n-Seq
Form: RNA
Matrix: in vitro
Tested at: not given
Notes: RNA with constant flanks, human and mouse sites, ends assumed
Reference: input RNA pool
Direction: higher = stronger binding
Constant ends, left off below: GGGAGUUCUACAGUCCGACGAUC … CAACAGAGGAUUGAGCAUCA
Construct (chain): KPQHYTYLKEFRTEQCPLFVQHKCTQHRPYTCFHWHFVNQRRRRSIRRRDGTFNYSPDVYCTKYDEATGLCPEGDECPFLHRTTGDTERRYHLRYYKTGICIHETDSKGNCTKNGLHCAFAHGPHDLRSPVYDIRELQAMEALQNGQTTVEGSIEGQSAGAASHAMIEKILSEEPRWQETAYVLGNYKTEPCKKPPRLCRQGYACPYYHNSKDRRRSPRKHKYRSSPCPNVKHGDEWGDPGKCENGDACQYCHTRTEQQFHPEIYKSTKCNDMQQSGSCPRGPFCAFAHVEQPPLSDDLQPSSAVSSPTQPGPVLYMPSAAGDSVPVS
Oligonucleotide	bound/input enrichment
AGCCUCAACACGCUGGAGCUUUUUGACAACCGGCUGACCACGGUGCCCACGCAGGCCUUCGAGUACCUGUCCAAGCUGCGGGAGCUCUGGCUGCGGAACAACCCCAUCGAGAGCAUCCCC	0.0516 ratio
AAAAAGGAAGGAAAAAAAAAGAAAAAAUUUAAAAAAUUUUAAAAAUAUAACGAGGGAUAAAUUUUUGGUGGUGAUAGUGUCCCAGUACAAAAAGGCUGUAAGAUAGUCAACCACAGUAGU	7.22 ratio
GGUGCAUUUCCUGAUGCCCAGCUUCCUUCUAAGAGGAUCAUUGGCCCCAAAAAUUAUGAAUUCUUAAAGUCAAAGAGGGAAGAGUUCCAAGAAUAUCUACAGAAACUUCUGCAGCAUCCA	0.194 ratio
CCGCUGGACAUCGAGUGGCUGAUAUCACCAGCUGAUAAUCAGAAGGUGGAUCAAGUGAUUAUUUUAUAUUCUGGAGACAAAAUUUAUGAUGACUACUAUCCAGAUCUGAAAGGCCGAGUA	0.308 ratio
UCUUAUAAUAGUCUAGUGCUAUAGAUGUUCAUGGAUUGUUUGAUGCUCCAUAACUCCUCAUUUAGAUAACUUUUUAGUAACAGCAUCUUCCAGUGGCGACAAAAUAGUUGUCUCAAGUUG	40.7 ratio
CCUACCCCCAUUGCAGGACUGGACAAUAUUAUCUUAUUCUUGAGAGGUUGUAAAGAGCUCGGCCUUAAAGAAUCUCAACUUUUUGACCCGAGUGACCUCCAGGAUACAUCCAACAGAGUA	0.211 ratio
GGCUGCUGAUUGUGUUCUAAGGGUCGGAGUGGGGUCGACGUUUGCUCUACCGGAACAGCUUAGCUCAUUCCUCCCUUUCCAUUACCUGUGGCGCGGAGAGUUGGGGCGGCGGCUGCGUCA	0.115 ratio
ACUCCAGAGCAAAGAGGACCAAGGCUGGACCCCGACACCGAGACACCUCAGUUGAAUAAAACUGUCAGCAUAAAACGACGGGACUCCUAUCUGAGCUGCAAGACAGAGGCCGUGUCUACC	0.132 ratio

Set 5
Target: Phosphate system positive regulatory protein PHO4, full length, GST-tagged (PHO4, Saccharomyces cerevisiae, UniProt P07270, residues 1-312)
Technique: competition protein-binding microarray
Form: double-stranded DNA, one strand shown
Matrix: in vitro
Tested at: 2 µM
Notes: whole 60-bp probe, lowest competitor level
Together with: Cbf1 competitor, 0.05 µM
Direction: higher = stronger binding
Constant ends, left off below: … GTCTTGATTCGCTTGACGCTGCTG
Construct (chain): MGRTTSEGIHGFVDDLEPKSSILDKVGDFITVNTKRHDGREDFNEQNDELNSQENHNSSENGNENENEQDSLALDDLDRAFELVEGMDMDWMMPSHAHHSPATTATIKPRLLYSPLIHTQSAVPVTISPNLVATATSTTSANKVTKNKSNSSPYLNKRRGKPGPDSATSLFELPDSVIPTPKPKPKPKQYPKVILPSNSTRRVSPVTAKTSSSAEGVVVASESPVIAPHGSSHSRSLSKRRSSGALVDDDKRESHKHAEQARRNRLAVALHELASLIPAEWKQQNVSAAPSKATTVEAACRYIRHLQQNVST
Oligonucleotide	fluorescence intensity
AGTTCTCTATTCCGCACCGTGCCGAGTTGTGGCAAA	9920 a.u.
TTCCTTGGCGCTATTTTCGTGCATCCCGTAATTGCC	4420 a.u.
CTTCTGTAAATTTGCCAGGTGGGTGGACGCGCCCCG	5480 a.u.
AACACCTTCCGACGGCGCGTGTTGGCAAAGCTGGGT	8360 a.u.
CTAACGAAGGTTTGTACCGTGGGTGACAAGCCAAGT	5570 a.u.
AGACAAAGTTTGGTGGGCGTGGGACGAAGAATTCAG	8200 a.u.
AAAGCGGTAATTTGCCTTGTGGGTGCAGATATCTAT	5840 a.u.
TCTTACAATGTTCCGCACGTTTATCAAAGTGTTACA	13800 a.u.
CTATCCACCAATATGCTCGTGGGTAACATCTAGAGA	10900 a.u.
CTTCTGTAAATTTGCATCGTGGGTGGACGCGCCCCG	11200 a.u.
CATACCCAACCTTGACATGTGGGTGAAGATATTTGT	13600 a.u.
CGGGGTTAAGTTTGGCTAGTGGGTGGCTTGCAGCAG	4820 a.u.
AAGATCTAGGCCCATCACGCAGGCAGTTACTGAGAA	4810 a.u.
CTTTCCCGATCTTGTCACCCTACTTTAGCACATTTG	4010 a.u.
CTTCTGTAAATTTGCTGGGTGGGTGGACGCGCCCCG	4490 a.u.
TATATACATTGCCATCACGGGACTTAGCGTTAGTTC	5780 a.u.
TCCCTGTTTATTTCACACGTCGCTTTGACTGCATAC	5740 a.u.
AAGACTGTACATTCACACGGGAAACGAGAGAAAGAA	5330 a.u.
CTAACGAAGGTTTGTCACGCAACTTACAAGCCAAGT	5400 a.u.

A few entries again (set 5):
Oligonucleotide	fluorescence intensity
CTTCTGTAAATTTGCATCGTGGGTGGACGCGCCCCG	11200 a.u.
AAGACTGTACATTCACACGGGAAACGAGAGAAAGAA	5330 a.u.
AAAGCGGTAATTTGCCTTGTGGGTGCAGATATCTAT	5840 a.u.
AGTTCTCTATTCCGCACCGTGCCGAGTTGTGGCAAA	9920 a.u.
AAGATCTAGGCCCATCACGCAGGCAGTTACTGAGAA	4810 a.u.
AACACCTTCCGACGGCGCGTGTTGGCAAAGCTGGGT	8360 a.u.
AGACAAAGTTTGGTGGGCGTGGGACGAAGAATTCAG	8200 a.u.
